# Measured values gathered from unrelated publications.
# A part holds a random share of what one study measured. Substitutions count along the parent as printed.

# Series 1
# Target: human cyclin B2
# Read-out: peptide binding
# Technique: yeast competitive growth sequencing
# Molecule type: peptide
# Organism: Saccharomyces cerevisiae
# Strain: cyclin B2-Cln2 fusion
# Concentration: concentration not given
# Baseline: Cln2 fusion control
# Reading: direction not given
Molecule,binding enrichment score
KLLPRKLQFFCDP,0.205
APPRKALFTYPKG,0.585
MDASRQLMLNEEQ,0.0702

# Series 2
# Target: RING finger protein unkempt homolog, zinc fingers 1-6, GST-SBP tag (UNK, Homo sapiens, UniProt Q9C0B0, residues 30-357)
# UniProt Q9C0B0, sequence (30-357, looked up): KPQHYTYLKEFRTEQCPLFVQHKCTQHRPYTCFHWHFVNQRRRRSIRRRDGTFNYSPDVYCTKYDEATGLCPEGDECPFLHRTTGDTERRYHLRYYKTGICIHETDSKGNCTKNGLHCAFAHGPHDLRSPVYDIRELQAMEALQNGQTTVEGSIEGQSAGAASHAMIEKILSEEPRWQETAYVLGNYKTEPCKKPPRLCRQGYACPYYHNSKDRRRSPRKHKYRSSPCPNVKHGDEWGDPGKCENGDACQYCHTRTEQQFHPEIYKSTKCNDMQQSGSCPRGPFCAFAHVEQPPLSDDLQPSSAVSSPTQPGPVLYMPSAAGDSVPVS
# Technique: RNA Bind-n-Seq
# Molecule type: RNA
# Sample: in vitro
# Concentration: not given
# Setting: RNA with constant flanks, human-mouse chimeric sites, ends assumed
# Baseline: input RNA pool
# Reading: higher = stronger binding
# Constant ends, left off below: GGGAGUUCUACAGUCCGACGAUC … CAACAGAGGAUUGAGCAUCA
Sequence,bound/input enrichment [ratio]
UAAAUUAGGGCUGCCGUUUUCUGUUUCUCCCUGGGCUGCGGAAAGCCAGGCGGUUUUAUCUAGCUUAUACAAGGCUGCUGGUGUUCCCUCCCUCCCGCCACGAGGGUGUUUUUGGCUGCA,3.14
UGGCGCCUGCGCUCCCCACUCGUGUUUUUAAGUGUAUUUUUAUAAGACAUGUGUAUUUACAAUUGAGCUUUUGUUACAUAAUGCUGAAAACAUCUCUGAGAUUAUGAAAAAUGUUUCAAU,0.133
GAAACAUUUAAAUUUAAAGAAGCUGUUGUUCUAGGAAGUACGGACUUUCUAGAAGAUGAUAUAGAGAAAAUUGUAGAAGAACUGGGGAAAGAAUACAAGGGCAACGCUUAUCAUUUAAUG,2.23
GGUGGGGUGGUCAUUGCCGUUUGAGCUGCUGAUUUUCAUGAGUCGCCUUCAAAACUCUCGUGUAGGGUUGACACUGUGGGGGGGUGGGGGAUCCAGCUUAUUCUUUUUCCCCAGCCCCCA,0.445
CUCAGAGAUGUGGCAUAUCAGUAUGUGAAAAAGGGGGCUCGUAUAUUUUUGGAAGGGAAAGUGGACUAUGGCGAGUACAUGGAUAAAAAUAAUGUGAGGCGGCAAGCAACAACAAUCAUA,0.504
CUGGGUAUCAUCUCUCGUGCUGUUAGACACCUUUUUAAGAGUAUUGAUGAGAAAAAGACCUCAGCGAUUAAAAACGGGCUGCCCCCUCCUGAAUUCAAAGUGAAUGCCCAGUUCCUAGAG,0.402
CUGGCACUCUAUCAGAUAGAUUACUUUUUUAAUGUAGAUGUAAUUUUAAAAAUGAAUGGCUACUUUACGUGAUAGAUUAGGGUUUUACUAUAUAUGUGUACAUAUGUAUAUAUAUAUAUA,9.33
AUAAAAGCUAUGUUGAGUGGUCCAGGUCAGUUUGCUGAGAAUGAAACCAACGAGGUCAAUUUUAGAGAGAUACCUUCACAUGUGCUAUCAAAAGUGUGCAUGUAUUUUACCUACAAGGUC,0.18
GGAAGCACAAUGAUGGAGAUUGAUGGUGACAAAGGCAAGCAGGGCGGGCCCACCUACUACAUAGACACCAAUGCCCUCCGCGUGCCCAGGGAGAACAUGGAGGCCAUCUCACCACUCAAG,0.199
AACAGAUUGUCUUUAAGCAUUCCAAGCGAGAAUGCUGGGGUGAUCAUUGUUGCCCAUGUGCCUUCUGUAAUAGAUGGAAUGCUGUUCCAUGUUACAUCUUUCCUUCACUCCAGAAUUGUU,0.122
UAAAUUAGGGCUGCCGUCCGUUCUCACUCCCUGGGCUGCGGAAAGCCAGAAGAUUUUAUCUAGUUUGUACAAGGCUGCUGGUGUUCCCUCUUUUUUUCCACGAGGGUGUUUUUGGCUGCA,0.704

# Series 3
# Target: Sal-like protein 4, full length isoform B (SALL4, Homo sapiens, UniProt Q9UJQ4-2, residues 1-616)
# Technique: universal PBM
# Molecule type: double-stranded DNA, one strand shown
# Sample: in vitro
# Concentration: not given
# Setting: 8-mer, flanks averaged, mean of replicates
# Reading: higher = stronger binding
# Construct (chain): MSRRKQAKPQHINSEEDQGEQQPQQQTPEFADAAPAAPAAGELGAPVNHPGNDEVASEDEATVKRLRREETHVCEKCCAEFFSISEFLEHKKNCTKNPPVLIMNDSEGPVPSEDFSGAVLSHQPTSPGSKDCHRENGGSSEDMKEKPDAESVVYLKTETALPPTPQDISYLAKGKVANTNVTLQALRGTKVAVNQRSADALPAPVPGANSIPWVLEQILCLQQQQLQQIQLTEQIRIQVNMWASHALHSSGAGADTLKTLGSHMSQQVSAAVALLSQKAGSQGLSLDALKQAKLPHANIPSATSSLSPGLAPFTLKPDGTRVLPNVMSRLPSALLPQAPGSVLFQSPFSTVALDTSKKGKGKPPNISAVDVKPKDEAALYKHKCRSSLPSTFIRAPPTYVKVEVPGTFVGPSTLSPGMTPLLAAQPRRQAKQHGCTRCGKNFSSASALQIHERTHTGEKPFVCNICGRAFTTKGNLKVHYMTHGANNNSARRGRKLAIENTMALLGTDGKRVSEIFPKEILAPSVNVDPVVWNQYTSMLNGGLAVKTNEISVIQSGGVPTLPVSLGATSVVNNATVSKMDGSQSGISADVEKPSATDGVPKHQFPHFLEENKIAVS
Sequence,E-score
CACGCAAG,0.00827
ACGGACGT,-0.0873
ATTGCGCG,0.0245
ACCAGCAT,-0.0938
ATTTACCC,0.0832
AGGTGATG,-0.176
AGTAGAAA,0.0756
AATTTACT,0.355
GATCACTA,0.0193
GAAAAACC,0.0338
ACAAAGAG,0.00467
GTACCCGA,-0.17
ATGCACAC,0.11
CGGACGAA,-0.0958
GATACGAA,0.106
ACAGTGGC,-0.165
ATTTCGAA,0.259
CGGTGACC,-0.255

# Series 4
# Target: Centromere-binding protein 1, full length, N-terminal tag (CBF1, Saccharomyces cerevisiae, UniProt P17106, residues 1-351)
# UniProt P17106, sequence (whole entry, looked up): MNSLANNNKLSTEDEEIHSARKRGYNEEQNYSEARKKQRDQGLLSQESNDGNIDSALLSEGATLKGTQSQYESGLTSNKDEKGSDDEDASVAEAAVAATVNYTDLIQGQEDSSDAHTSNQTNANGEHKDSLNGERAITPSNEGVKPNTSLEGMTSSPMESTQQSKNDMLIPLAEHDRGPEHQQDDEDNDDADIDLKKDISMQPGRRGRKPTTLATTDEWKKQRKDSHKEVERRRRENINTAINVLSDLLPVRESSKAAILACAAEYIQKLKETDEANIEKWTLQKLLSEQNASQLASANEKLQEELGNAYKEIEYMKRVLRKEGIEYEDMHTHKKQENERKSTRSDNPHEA
# Technique: protein-binding microarray
# Molecule type: double-stranded DNA, one strand shown
# Sample: in vitro
# Concentration: 0.8 µM
# Setting: whole 60-bp probe, no competitor
# Reading: higher = stronger binding
# Constant ends, left off below: … GTCTTGATTCGCTTGACGCTGCTG
Sequence,fluorescence intensity [a.u.]
GAAGTTGATAAAGGTCACCTTATACGTTCTATGTAG,564
GAAAATGATAGACTGATCAGTACATCTTCAATTTAG,526
GAACGGTCCGGGTGACACGTCCGCCGTGCTTCATAG,518
GAACCATTTTTACACGTGCTCTTTCTTGGCAGCTAG,7260
GAAGATGGCCTATGTCATGTGTCTAAAAAGTTTTAG,1260
TGTACGAAGCTATGTGACTCAATTATAGTAGTTAGG,560
GAAATAATCGGTCACCTCGTGTGTCGTGATAAATAG,972
GAATTCCATAAAGAGCACGTGCGGGCGCGCTGGTAG,9750
GAAATATGTAATAGACATGTGATACATTTTTATTAG,3110
CTATTGTTGACTTACCACATGTGCAGCCGCCTTTTC,868
CTAATCCTATTTTAAAACGTGAATATTCCAAGATTC,616
CTAATGGCTTTGCATCTGATGCTGGCTCTACCGTTC,497
CTATGACTAATTCATCACCAAAGAGAAATATGCTTC,535
GAAGGGCATGTCTCACACACCACCGCCTTCCACTAG,526
CTATGCTGGTAATCTCAGCTGAAAGGCTGCCTTTTC,500
GAATACCGCAAGCACCACCAACACACCCGCCGCTAG,503
CTAATTTCATATTTTCATCTGATTTTTTTTCTGTTC,483
CTACCACTATAATCAGCTGTTATGACTTAGCCATTC,581
CTAACACTTCTGAGAAGCCACGTGTAGAGGGGTTTC,2090

# Series 5
# Target: Prothrombin, mature alpha-thrombin (F2, Homo sapiens, UniProt P00734)
# Technique: aptamer microarray, sandwich
# Molecule type: DNA with 2'F-ANA
# Sample: in vitro
# Concentration: 200 nM
# Setting: whole 15-mer aptamer, many near background
# Added: Cy3 exosite-II aptamer, 400 nM
# Reading: higher = stronger binding
# Sequence: GGTTGGTGTGGTTGG
Modification,mean fluorescence intensity [a.u.]
2'F-ANA at 3 7 12 13 14 15,670
2'F-ANA at 1 3 6 7 8 9 12 13 14,116
2'F-ANA at 2 3 4 7 13,582
2'F-ANA at 2 3 7 13,837
2'F-ANA at 4 5 8 9 11,60.3
2'F-ANA at 1 2 3 8 10 11 12 13,84.3
2'F-ANA at 1 3 5 8 12,164
2'F-ANA at 3 5 7 12 13,205
2'F-ANA at 1 3 7 8 13 14 15,107
2'F-ANA at 1 2 5 6 10 12 14 15,50.5
2'F-ANA at 3 5 6 8 9 10 11 12 13 14 15,49.4
2'F-ANA at 2 3 6 8 11 13 14 15,317
2'F-ANA at 5 6 7 8 11 12,131
2'F-ANA at 2 4 7 10 11 14,70.4
2'F-ANA at 1 2 6 7 11 12 15,217
2'F-ANA at 3 6,1090
2'F-ANA at 1 2 4 7 8 9 11 15,113
2'F-ANA at 1 4 8 10 11 15,55.3
2'F-ANA at 2 3 5 6 7 11 13 14 15,51.4
2'F-ANA at 1 3 6 8 10 12,119

# Series 6
# Target: ABI1, truncated, D143A, DHFR fusion (Arabidopsis thaliana)
# Technique: DHFR PCA, deep sequencing
# Sample: yeast
# Setting: methotrexate growth selection, single substitutions
# Added: (+)-ABA 710 µM
# Baseline: wild-type fitted maximum
# Reading: higher = stronger binding
# Parent: PYL1, truncated, DHFR fusion (Arabidopsis thaliana); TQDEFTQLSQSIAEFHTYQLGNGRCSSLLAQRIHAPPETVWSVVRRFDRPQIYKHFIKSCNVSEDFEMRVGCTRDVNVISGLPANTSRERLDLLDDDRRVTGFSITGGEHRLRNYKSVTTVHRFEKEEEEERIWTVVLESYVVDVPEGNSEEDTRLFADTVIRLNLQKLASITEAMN; partner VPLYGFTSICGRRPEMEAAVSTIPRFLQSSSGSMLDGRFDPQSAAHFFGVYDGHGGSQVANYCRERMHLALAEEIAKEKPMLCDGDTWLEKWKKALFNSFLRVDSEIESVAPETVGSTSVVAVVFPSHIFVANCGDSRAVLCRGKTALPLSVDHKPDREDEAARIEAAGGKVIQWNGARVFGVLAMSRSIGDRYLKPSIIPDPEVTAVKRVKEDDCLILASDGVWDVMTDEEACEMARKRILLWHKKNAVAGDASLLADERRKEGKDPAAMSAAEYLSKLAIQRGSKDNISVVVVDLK
Substitution,relative binding score [%]
E129F,107
R88G,80.9
P37A,95
D97V,113
K168A,96
L169Q,-2.67
A175K,101
Q167F,86.9
R74F,2.64
P36R,94.9
E4L,101
N85W,98.3
D153L,4.24
E4N,101
T1I,95.6
E38M,75.4
E128Q,111
T119C,106
Q2F,104
R88K,106
R99K,115
